Experimental data collected from several papers.
A part holds a random share of what one study measured. Values joined by “and” are separate records of one study, mostly repeats; a detail may differ.
Chain of UniProt P07949 (whole entry, unmodified, looked up): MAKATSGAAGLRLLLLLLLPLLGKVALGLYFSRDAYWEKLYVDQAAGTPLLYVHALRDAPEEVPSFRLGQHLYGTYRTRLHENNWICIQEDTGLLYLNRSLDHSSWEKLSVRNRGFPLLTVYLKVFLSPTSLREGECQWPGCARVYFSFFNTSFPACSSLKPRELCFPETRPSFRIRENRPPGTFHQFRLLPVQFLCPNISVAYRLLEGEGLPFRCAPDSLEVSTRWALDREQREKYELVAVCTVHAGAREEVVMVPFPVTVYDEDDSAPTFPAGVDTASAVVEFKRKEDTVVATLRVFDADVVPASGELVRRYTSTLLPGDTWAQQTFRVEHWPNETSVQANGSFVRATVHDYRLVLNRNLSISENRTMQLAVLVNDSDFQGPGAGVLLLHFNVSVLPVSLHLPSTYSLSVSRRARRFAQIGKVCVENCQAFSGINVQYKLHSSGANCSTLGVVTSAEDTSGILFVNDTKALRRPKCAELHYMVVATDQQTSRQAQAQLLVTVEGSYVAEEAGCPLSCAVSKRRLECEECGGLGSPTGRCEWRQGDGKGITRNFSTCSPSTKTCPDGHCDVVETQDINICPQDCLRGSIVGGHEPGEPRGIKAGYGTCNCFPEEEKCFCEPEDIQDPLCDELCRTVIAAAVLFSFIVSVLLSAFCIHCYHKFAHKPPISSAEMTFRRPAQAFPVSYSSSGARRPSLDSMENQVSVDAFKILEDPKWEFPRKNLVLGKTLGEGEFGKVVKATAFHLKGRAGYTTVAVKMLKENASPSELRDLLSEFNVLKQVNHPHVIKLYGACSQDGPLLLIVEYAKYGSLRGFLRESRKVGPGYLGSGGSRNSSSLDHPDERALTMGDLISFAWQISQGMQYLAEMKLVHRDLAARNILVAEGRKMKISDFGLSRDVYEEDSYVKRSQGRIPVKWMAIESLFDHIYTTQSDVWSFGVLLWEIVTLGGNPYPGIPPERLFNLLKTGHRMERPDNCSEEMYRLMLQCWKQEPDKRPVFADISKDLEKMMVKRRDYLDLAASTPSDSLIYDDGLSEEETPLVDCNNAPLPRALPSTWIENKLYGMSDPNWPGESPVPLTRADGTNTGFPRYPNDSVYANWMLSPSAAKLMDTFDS
Chain of UniProt Q13237 (whole entry, looked up): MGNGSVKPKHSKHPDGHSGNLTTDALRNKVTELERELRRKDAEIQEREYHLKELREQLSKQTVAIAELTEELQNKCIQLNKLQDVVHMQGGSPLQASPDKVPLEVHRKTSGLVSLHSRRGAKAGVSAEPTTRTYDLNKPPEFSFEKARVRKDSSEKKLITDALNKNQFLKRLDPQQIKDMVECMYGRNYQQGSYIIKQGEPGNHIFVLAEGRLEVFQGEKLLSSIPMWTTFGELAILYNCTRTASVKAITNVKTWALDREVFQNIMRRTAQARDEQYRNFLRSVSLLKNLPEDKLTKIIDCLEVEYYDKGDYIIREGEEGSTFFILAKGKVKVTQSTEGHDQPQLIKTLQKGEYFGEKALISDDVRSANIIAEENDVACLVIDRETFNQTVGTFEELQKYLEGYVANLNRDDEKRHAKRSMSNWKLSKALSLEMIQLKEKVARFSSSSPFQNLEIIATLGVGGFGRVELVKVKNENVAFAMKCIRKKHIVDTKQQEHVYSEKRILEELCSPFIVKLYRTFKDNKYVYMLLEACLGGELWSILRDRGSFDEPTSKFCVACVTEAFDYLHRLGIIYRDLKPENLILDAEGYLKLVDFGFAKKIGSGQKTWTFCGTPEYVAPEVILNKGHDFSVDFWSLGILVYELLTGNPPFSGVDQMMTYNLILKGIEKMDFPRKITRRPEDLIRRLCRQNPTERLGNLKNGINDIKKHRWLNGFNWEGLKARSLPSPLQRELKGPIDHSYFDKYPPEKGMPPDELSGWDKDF
Chain of UniProt Q08345 (whole entry, looked up): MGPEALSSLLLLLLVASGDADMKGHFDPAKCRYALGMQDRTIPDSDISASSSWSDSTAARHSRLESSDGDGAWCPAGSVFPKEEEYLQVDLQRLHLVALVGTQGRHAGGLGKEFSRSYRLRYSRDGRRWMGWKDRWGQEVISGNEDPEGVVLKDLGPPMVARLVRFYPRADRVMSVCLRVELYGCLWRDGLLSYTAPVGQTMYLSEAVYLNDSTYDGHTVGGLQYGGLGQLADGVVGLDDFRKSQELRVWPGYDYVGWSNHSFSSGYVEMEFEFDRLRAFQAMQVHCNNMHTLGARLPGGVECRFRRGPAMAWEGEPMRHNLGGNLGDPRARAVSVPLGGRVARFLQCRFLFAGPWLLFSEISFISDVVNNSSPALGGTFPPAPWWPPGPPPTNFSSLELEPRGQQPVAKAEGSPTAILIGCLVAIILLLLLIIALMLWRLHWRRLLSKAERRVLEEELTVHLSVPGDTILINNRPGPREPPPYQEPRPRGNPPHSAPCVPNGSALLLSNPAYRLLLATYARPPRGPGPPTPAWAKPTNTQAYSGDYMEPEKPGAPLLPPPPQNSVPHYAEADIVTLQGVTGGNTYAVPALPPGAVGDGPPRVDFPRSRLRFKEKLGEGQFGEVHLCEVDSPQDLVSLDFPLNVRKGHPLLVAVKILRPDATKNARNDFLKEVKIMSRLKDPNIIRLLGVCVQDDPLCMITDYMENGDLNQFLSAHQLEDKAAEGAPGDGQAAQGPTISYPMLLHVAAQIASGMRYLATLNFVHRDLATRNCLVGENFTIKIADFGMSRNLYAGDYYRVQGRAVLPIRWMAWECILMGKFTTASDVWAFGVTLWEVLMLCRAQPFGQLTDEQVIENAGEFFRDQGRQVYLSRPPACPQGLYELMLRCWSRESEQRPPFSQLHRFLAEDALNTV
Chain of UniProt O15197 (whole entry, looked up): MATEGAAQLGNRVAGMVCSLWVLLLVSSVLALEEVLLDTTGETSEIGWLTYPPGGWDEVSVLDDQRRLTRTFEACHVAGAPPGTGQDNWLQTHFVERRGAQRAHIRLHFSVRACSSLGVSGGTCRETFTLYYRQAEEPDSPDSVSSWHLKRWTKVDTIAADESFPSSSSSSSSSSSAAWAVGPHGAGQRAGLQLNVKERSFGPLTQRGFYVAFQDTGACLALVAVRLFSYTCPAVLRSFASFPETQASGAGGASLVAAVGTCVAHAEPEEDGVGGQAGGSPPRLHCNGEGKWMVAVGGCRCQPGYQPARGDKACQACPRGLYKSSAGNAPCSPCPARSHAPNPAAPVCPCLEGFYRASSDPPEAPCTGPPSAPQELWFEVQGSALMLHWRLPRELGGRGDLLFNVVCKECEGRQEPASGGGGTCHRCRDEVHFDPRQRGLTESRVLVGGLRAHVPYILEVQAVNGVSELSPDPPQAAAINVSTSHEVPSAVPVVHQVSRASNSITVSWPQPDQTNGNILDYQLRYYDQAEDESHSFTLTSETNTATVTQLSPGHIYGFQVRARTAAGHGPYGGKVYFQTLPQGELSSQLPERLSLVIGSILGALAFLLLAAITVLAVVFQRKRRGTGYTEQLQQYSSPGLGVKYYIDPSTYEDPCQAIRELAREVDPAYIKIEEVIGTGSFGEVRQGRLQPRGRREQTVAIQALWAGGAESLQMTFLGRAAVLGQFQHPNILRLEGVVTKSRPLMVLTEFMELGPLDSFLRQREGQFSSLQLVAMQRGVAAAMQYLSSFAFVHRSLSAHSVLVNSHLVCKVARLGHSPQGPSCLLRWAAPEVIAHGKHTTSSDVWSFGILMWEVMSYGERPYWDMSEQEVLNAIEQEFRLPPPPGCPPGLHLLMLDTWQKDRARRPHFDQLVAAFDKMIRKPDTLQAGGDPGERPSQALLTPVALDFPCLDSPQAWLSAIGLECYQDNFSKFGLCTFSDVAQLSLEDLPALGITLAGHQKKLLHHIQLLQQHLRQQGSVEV
Chain of UniProt Q16620 (whole entry, looked up): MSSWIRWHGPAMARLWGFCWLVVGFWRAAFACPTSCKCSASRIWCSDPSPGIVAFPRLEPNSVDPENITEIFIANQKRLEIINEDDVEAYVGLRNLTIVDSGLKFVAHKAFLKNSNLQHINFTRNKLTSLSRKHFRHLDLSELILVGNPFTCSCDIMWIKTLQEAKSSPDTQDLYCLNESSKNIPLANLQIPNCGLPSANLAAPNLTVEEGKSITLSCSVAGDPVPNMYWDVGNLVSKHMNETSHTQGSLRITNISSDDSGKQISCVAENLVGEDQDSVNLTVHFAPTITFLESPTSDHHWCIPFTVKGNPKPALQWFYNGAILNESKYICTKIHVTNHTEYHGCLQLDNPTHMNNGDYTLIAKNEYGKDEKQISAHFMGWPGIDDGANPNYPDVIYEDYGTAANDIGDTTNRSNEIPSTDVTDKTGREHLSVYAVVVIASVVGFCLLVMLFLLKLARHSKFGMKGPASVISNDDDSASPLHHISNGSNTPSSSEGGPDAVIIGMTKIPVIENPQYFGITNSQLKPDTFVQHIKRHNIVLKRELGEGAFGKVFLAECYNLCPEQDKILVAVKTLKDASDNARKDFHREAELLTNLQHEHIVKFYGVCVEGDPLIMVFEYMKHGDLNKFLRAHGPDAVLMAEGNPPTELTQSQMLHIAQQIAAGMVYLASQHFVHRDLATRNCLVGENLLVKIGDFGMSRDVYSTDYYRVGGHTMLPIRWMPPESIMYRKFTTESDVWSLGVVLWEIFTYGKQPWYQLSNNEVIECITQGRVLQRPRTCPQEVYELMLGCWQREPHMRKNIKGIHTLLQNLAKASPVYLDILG
Chain of UniProt P0C264 (whole entry, looked up): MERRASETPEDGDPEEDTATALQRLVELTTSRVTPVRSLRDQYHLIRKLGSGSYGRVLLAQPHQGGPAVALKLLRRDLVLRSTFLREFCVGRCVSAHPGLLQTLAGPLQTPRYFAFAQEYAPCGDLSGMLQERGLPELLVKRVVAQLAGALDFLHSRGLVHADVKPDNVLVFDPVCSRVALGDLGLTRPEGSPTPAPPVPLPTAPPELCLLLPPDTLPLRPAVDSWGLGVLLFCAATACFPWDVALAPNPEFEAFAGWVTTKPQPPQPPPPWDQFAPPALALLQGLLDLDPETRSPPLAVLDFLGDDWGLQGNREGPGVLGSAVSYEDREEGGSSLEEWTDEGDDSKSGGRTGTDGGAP

Set 1
Compound: COc1ccc2[nH]c3c4[nH]c5ccc(OC)cc5c4c4c(c3c2c1)C(=O)NC4=O
Observed: binding
Tested at: 1 µM
Measurement: remaining binding
MYLK (Homo sapiens, UniProt Q15746): 6.9%
PIM2 (Homo sapiens, UniProt Q9P1W9): 0.5%
PRKG2 (Homo sapiens, UniProt Q13237): 0.9%
DAPK1 (Homo sapiens, UniProt P53355): 22%
PRKAA1 (Homo sapiens, UniProt Q13131); competition with immobilised ligand: 44%
RET (Homo sapiens, UniProt P07949); competition with immobilised ligand: 41%
MAST1 (Homo sapiens, UniProt Q9Y2H9): 45%
EPHB6 (Homo sapiens, UniProt O15197); competition with immobilised ligand: 7.3%
RIOK3 (Homo sapiens, UniProt O14730): 100%
RET (Homo sapiens, UniProt P07949, M918T): 21%

Set 2
Target: STE20/SPS1-related proline-alanine-rich protein kinase (STK39, Homo sapiens, UniProt Q9UEW8)
Observed: enzyme activity
Mode: inhibitor
Tested at: 0.5 µM
Reference: control
Measurement: remaining activity
CCOc1nc(NC(=O)Cc2cc(OC)ccc2OC)cc(N)c1C#N: 92.7%
N#C/C(=C\c1ccc(O)c(O)c1)C(=O)NCc1ccccc1: 99.8%
N#Cc1c(NC(=O)c2cccc3ccccc23)sc2c1CCCC2: 94.6%
CN([C@@H](Cc1ccc(OS(=O)(=O)c2cccc3cnccc23)cc1)C(=O)N1CCN(c2ccccc2)CC1)S(=O)(=O)c1cccc2cnccc12: 93.5%
Ic1cccc(CSc2nnc(-c3ccncc3)o2)c1: 101%
CCN(CC)C(=O)c1ccc(Nc2nc(OCC3CCCCC3)c3[nH]cnc3n2)cc1: 91.5%
Cn1nc2c3c(cccc31)C(=O)c1ccccc1-2: 101%
Cc1cn(-c2cc(NC(=O)c3ccc(C)c(Nc4nccc(-c5cccnc5)n4)c3)cc(C(F)(F)F)c2)cn1: 96.3%
COc1cc2c(cc1OC)-c1[nH]nc(Nc3cccc(F)c3)c1C2: 105%
CCN(CC)CCNC(=O)c1c(C)[nH]c(/C=C2\C(=O)Nc3ccc(Cl)cc32)c1C: 81.9%
O=C(Nc1cccc(Nc2nccc(Nc3cccc(C(F)(F)F)c3)n2)c1)C1CC1: 94.1%
O=C(NC(NC(=S)Nc1ccc(F)c([N+](=O)[O-])c1)C(Cl)(Cl)Cl)C(c1ccccc1)c1ccccc1 (centres unmarked): 77%
CCN(CC)CCNC(=O)c1c(C)[nH]c(/C=C2\C(=O)Nc3ccc(F)cc32)c1C: 87.4%

Set 3
Structure (SMILES): CC(=O)N1CCN(c2nc(OC[C@@H]3CCCN3C)nc3c2CCN(c2cccc4cccc(Cl)c24)C3)C[C@@H]1CC#N
Cell line: HEK293
Technique: CellTiter-Glo
Reference: vehicle
Measurement: viability
10 µM: 13.1% and 20.7% and 17.1%
156 nM: 108% and 91.9% and 103%
625 nM: 81.8% and 98.9% and 89.6%
2.5 µM: 49.9% and 40.1% and 43.5%
5 µM: 24.5% and 29.8% and 28.9%

Set 4
SMILES: COc1ccc2c(O[C@@H]3C[C@H]4C(=O)N[C@]5(C(=O)O)CC5/C=C\CCCCC[C@H](NC(=O)OC5CCCC5)C(=O)N4C3)cc(-c3csc(NC(=O)C(C)C)n3)nc2c1C (some centres unmarked)
Observed: cell-free assay
Technique: competition with immobilised ligand
Tested at: 1 µM
Measurement: remaining binding
PIKFYVE (Homo sapiens, UniProt Q9Y2I7): 100%
NTRK2 (Homo sapiens, UniProt Q16620): 94%
MAP3K14 (Homo sapiens, UniProt Q99558): 89%
STK4 (Homo sapiens, UniProt Q13043): 100%
DDR1 (Homo sapiens, UniProt Q08345): 100%
PAK2 (Homo sapiens, UniProt Q13177): 91%
CDKL5 (Homo sapiens, UniProt O76039): 77%
EPHB1 (Homo sapiens, UniProt P54762): 100%
SBK3 (Homo sapiens, UniProt P0C264): 99%
TNIK (Homo sapiens, UniProt Q9UKE5): 96%

For quick reference, copied from above (set 1):
PRKG2 (Homo sapiens, UniProt Q13237): 0.9%
DAPK1 (Homo sapiens, UniProt P53355): 22%
PRKAA1 (Homo sapiens, UniProt Q13131); competition with immobilised ligand: 44%
RET (Homo sapiens, UniProt P07949); competition with immobilised ligand: 41%
MAST1 (Homo sapiens, UniProt Q9Y2H9): 45%
EPHB6 (Homo sapiens, UniProt O15197); competition with immobilised ligand: 7.3%
